Measurements gathered from unrelated publications.
Compare with care: the assays were run in different laboratories. “And” joins repeats or separate records; there may be more than shown. ± gives the spread as reported.

N#Cc1ccc2c(-c3ccncc3)c(-c3ccc(F)cc3)nn2c1
log2 fold change (kinase binding, competitor, MIB/MS competition, item: FPK1; Candida albicans cell lysate; 1 µM; reference: DMSO): 0.0646

CC[C@@H](C)[C@@H](NC(=O)[C@@H](Cc1ccc(O)cc1)NC(=O)[C@H]1CCCN1C(=O)[C@@H](CCCNC(=N)N)NC(=O)[C@H](N)Cc1c[nH]cn1)C(=O)N[C@H](C)C(=O)N[C@H](Cc1c[nH]cn1)C(=O)N[C@H](CCCNC(=N)N)C(=O)N[C@@H](C(=O)N[C@H](Cc1ccc(O)cc1)C(=O)N[C@H](CO)C(=O)N[C@H](Cc1ccccc1)C(N)=O)C(C)C
CD3+ CD8+ T cell frequency (ex vivo flow cytometry; B16 tumour-bearing mice, tumour; dose not given): 17.5% and 16% and 17.3% and 12.8% and 15.4%

CC(c1cc2ccccc2s1)N(O)C(N)=O (stereo not drawn)
amount (item: LTB4; human whole blood; 3 µM, added: Escherichia coli): 207 ± 164 pg/mL blood

CC(C)[C@H](C(=O)Nc1ccc(C(=O)NO)cc1)c1ccccc1
tumour volume change (volumetric MRI; human, left IAC schwannoma; dose not given, day 57; reference: baseline): 15.3%

N#Cc1ccn2c(-c3ccncc3)c(-c3ccc(F)cc3)nc2c1
log2 fold change (kinase binding, competitor, MIB/MS competition, item: RTK1; Candida albicans cell lysate; 1 µM; reference: DMSO): 0.00647

COc1cc2nc(N3CCN(C(=O)C4CCCO4)CC3)nc(N)c2cc1OC (stereo not drawn)
time to maximum BP lowering (blood pressure; spontaneously hypertensive rat, male; oral, 3 mg/kg): 15 min

CC[C@H](C)[C@H](NC(=O)[C@H](Cc1ccccc1)NC(=O)[C@H](CCC(=O)O)NC(=O)[C@H](CCCCN)NC(=O)[C@H](C)NC(=O)[C@H](C)NC(=O)[C@H](CCC(N)=O)NC(=O)CNC(=O)[C@H](CCC(=O)O)NC(=O)[C@H](CC(C)C)NC(=O)[C@H](Cc1ccc(O)cc1)NC(=O)[C@H](CO)NC(=O)[C@H](CO)NC(=O)[C@@H](NC(=O)[C@H](CC(=O)O)NC(=O)[C@H](CO)NC(=O)[C@@H](NC(=O)[C@H](Cc1ccccc1)NC(=O)[C@@H](NC(=O)CNC(=O)[C@H](CCC(=O)O)NC(=O)C(C)(C)NC(=O)[C@@H](N)Cc1cnc[nH]1)[C@@H](C)O)[C@@H](C)O)C(C)C)C(=O)N[C@@H](C)C(=O)N[C@@H](Cc1c[nH]c2ccccc12)C(=O)N[C@@H](CC(C)C)C(=O)N[C@H](C(=O)N[C@@H](CCCNC(=N)N)C(=O)NCC(=O)N[C@@H](CCCNC(=N)N)C(=O)NCC(=O)NCC(=O)NCC(=O)NCC(=O)N[C@@H](CO)C(=O)NCC(=O)NCC(=O)NCC(=O)NCC(=O)N[C@@H](CO)C(=O)NCC(=O)NCC(=O)NCC(=O)NCC(=O)N[C@@H](CO)C(=O)NCC(=O)N[C@@H](CSC(CC(=O)O)C(=O)NCCC(=O)NCC(=O)NCCOCCOCCOCCOCCC(=O)N[C@@H](CCCCNC(=O)CC[C@H](NC(=O)CCCCCCCCCCCCCCCCC(=O)O)C(=O)O)C(=O)NCCOCCOCCOCCOCCC(=O)N[C@@H](CCCCNC(=O)CC[C@H](NC(=O)CCCCCCCCCCCCCCCCC(=O)O)C(=O)O)C(=O)OC)C(=O)O)C(C)C (stereo partly drawn)
blood glucose AUC(0-96) (db/db mouse; subcutaneous, 100 nmol/kg single, 0 to 96 h; reference: baseline): 5640 ± 579%

CC1(C)CCC(CN2CCN(c3ccc(C(=O)NS(=O)(=O)c4ccc(NCC5CCOCC5)c([N+](=O)[O-])c4)c(Oc4cnc5[nH]ccc5c4)c3)CC2)=C(c2ccc(Cl)cc2)C1
EC50 (cell killing; primary canine neoplastic B cells, dog 40; 24 h): 1270 nM

CCCn1cc(C)c2c(=O)[nH]c(-c3cc(S(=O)(=O)N4CCN(CC)CC4)ccc3OCC)nc21
maximal mean SBP decrease (supine; concentration not given, 0 to 4 h; reference: baseline): 6.26 mmHg

Cc1n[nH]c2ccc(-c3cc(OC[C@@H](N)Cc4ccccc4)cnc3-c3ccoc3)cc12
log2 fold change (kinase binding, competitor, MIB/MS competition, item: KSP1; Candida albicans cell lysate; 10 µM; reference: DMSO): -0.384

C=CCn1c(=O)c2cnc(Nc3ccc(N4CCN(C)CC4)cc3)nc2n1-c1ccc2c(n1)[C@@](O)(CC)CC2
tumour growth inhibition (NCI-H1299 xenograft, BALB/c nude mice; oral, 80 mg/kg once daily x 28, day 23; reference: vehicle): 39.7%

CCCCC1(CCCC)CN(c2ccccc2)c2cc(SC)c(OCC(=O)N[C@@H](C(=O)NCC(=O)O)c3ccccc3)cc2S(=O)(=O)C1
plasma C4 (item: 7α-hydroxy-4-cholesten-3-one; human, plasma; 20 mg once daily, day 2): 45.7 ng/mL

C[C@@H]1C[C@H]2[C@@H]3CCC4=CC(=O)C=C[C@]4(C)[C@@]3(F)[C@@H](O)C[C@]2(C)[C@@]1(O)C(=O)CO
ear thickness difference (BALB/c mice, oxazolone atopic dermatitis; topical, 20 mg/ear, 336 h, day 14, unit not given; reference: vehicle): -0.374

CC(C)NCC(O)c1ccc(O)c(O)c1 (stereo not drawn)
sarcomere length (ventricular cardiomyocytes, C57BL/6 mouse; dose not given, 0.24 s): 1.56 µm

CN(C)C(=O)Nc1cccc(-c2ccc(N(C)C)cc2)c1
change in total fat (MRI; mouse, high-fat diet; dose not given): -0.775 g and 0.699 g and 0.475 g and -1.05 g and -1.3 g

N#Cc1ccc2c(c1)[C@H]1CCCN(C(=O)c3ccc4[nH]cnc4c3)[C@H]1C2
change from baseline (item: androstenedione; human female, Phase II trial; oral, 240 mg once daily, HPA axis, mean): 2.33 nmol/L

OC(CCN1CCCCC1)(c1ccccc1)C1CC2C=CC1C2 (stereo not drawn)
change, Gamma power, EEG Pz-O1 (resting-state EEG; healthy elderly humans; oral, 2 mg, eyes open, LS mean; reference: baseline): 0.6%

C=Cc1c(C)c2cc3nc(c(CC(=O)O)c4[nH]c(cc5nc(cc1[nH]2)C(C)=C5CC)c(C)c4C(=O)O)[C@@H](CCC(=O)O)[C@@H]3C
PD-L1 positive cells (flow cytometry; mice, 4T1 tumour-bearing; dose not given, 1 h): 1.92%

Cc1cnc(Nc2ccc(OCCN3CCCC3)cc2)nc1Nc1cccc(S(=O)(=O)NC(C)(C)C)c1
spleen weight (BALB/c mice rhEPO-induced polycythemia; 120 mg/kg): 0.121 g and 0.092 g and 0.108 g and 0.134 g and 0.1 g and 0.117 g

CN[C@@H]1COc2c(S(=O)(=O)NC(=O)Nc3c4c(cc5c3CCC5)CCC4)cnn2C1
inhibition (item: IL-1β; human participants, whole blood ex vivo; 900 mg twice daily, multiple doses, 1 h, added: LPS/ATP; reference: baseline): 99.8%

CN(C(=O)n1cnc(-c2ccc[n+]([O-])c2)c1)C1CCCCC1
AUC(0-t) (item: OEA; human, plasma; 0.25 mg single dose): 214 ng·h/mL

O=C(/C=C/c1ccc(O)c(O)c1/C=C/c1ccc(O)c(O)c1)O[C@H](Cc1ccc(O)c(O)c1)C(=O)O
maximal dP/dt (isolated myocardium; 10 µM): 1270 mmHg/s

Cc1ccc([C@@H]2O[C@H](CO)[C@@H](O)[C@H](O)[C@H]2O)cc1Cc1ccc(-c2ccc(F)cc2)s1
change in fasting serum insulin (Japanese type 2 diabetes patients; 25 mg, day 2; reference: day 1): 0.6 µU/mL

COc1cc(Nc2ncc3c(n2)-c2ccc(Cl)cc2C(c2c(F)cccc2OC)=NC3)ccc1C(=O)O
median response score (mouse, NB-EBc1 neuroblastoma xenograft; 5.2 mg/kg; direction not given): 2

C[C@H](Oc1ccc(Br)cc1-c1ccon1)C(=O)O
peak amplitude change (muscle velocity recovery cycles; human, tibialis anterior muscle; 1200 mg single dose, 3.5 h post-dose, frequency ramp, last response at 30 Hz): 80.7%

C[C@H]1C[C@H]2CSC(N)=N[C@@]2(c2nc(NC(=O)c3ccc(OC(F)F)cn3)cs2)CO1
percent change from baseline (item: Aβx-40; healthy adults, plasma; 400 mg single dose, 6 h post-dose; reference: placebo): -58.3%

Cn1cc(Nc2nccc(-c3ccc4c(c3)CN(C3COC3)CC[C@H]4NC(=O)c3cn(C(C)(C)C)nn3)n2)cn1
pathway activation z-score (item: sumoylation pathway; splenic B cells, mice; 30 mg/kg, IgD-activated in vivo; reference: vehicle, direction not given): 0.5

O[C@H]1CCCN[C@@H]1CCCn1cnc2c(Cl)c(Cl)ccc21
maximum reduction (ELISA, item: Pro-C3; healthy human volunteers, serum; 25 mg, day 1, multiple ascending dose): 26.1%

C[C@@H](NC(=O)N1C(=O)[C@H](Cc2ccnc(N)c2)[C@H]1C(=O)O)C1CCCCC1
prothrombin time change with dose (healthy Chinese adult volunteers, plasma; continuous intravenous infusion, 0.3 to 2.25 mg/kg/h, 5 days): no effect

CSCCNc1nc(SCCC(F)(F)F)nc2c1ncn2[C@@H]1O[C@H](COP(=O)(O)OP(=O)(O)C(Cl)(Cl)P(=O)(O)O)[C@@H](O)[C@H]1O
inhibition (platelet aggregation, light transmission aggregometry; human patients, platelet-rich plasma; dose not given, 1 h, added: TRAP 15 µM): 17 ± 17%

NC(=O)c1cnc2[nH]ccc2c1N[C@@H]1[C@@H]2CC3C[C@H]1C[C@@](O)(C3)C2
percent change (CD8+ effector memory T cells, flow cytometry; Caucasian humans, peripheral blood; 20 mg single dose; reference: baseline): 0.18%

CCCN1CCCC[C@H]1C(=O)Nc1c(C)cccc1C
sensory block (Sprague-Dawley rat, male; intrathecal, 30 µL, 15 mM): 100 % MPE

O=C1Nc2cc3[nH]nc(-c4ccncc4)c3cc2CN1Cc1ccccc1
complete response, best response (RECIST v1.1; human, relapsed or refractory advanced solid tumours; intravenous, 4.8 mg/kg, pooled schedules): 0%

N#Cc1ccc2c(c1)[C@H]1CCCN(C(=O)c3ccc4[nH]cnc4c3)[C@H]1C2
change in 1.5-AHG (human, plasma; 80 mg, day 15, 360 h; reference: placebo and baseline): -8.9%

CCOc1cc([C@@H](CS(C)(=O)=O)N2C(=O)c3cccc(NC(C)=O)c3C2=O)ccc1OC
ear thickness difference (Balb/c mice, oxazolone atopic dermatitis; day 11, unit not given; reference: vehicle): -0.0839

CC(C)C[C@@H](C=O)NC(=O)[C@H](CC(C)C)NC(=O)[C@H](CC(C)C)NC(=O)OCc1ccccc1
degradation rate constant (item: Ub(G76V)-GFP; 0.625 µM): 0.0089 min⁻¹

O=C(OC(C(F)(F)F)C(F)(F)F)N1CCN(Cc2cccc(Oc3ccccc3)c2)CC1
tracer distribution volume (PET; rhesus monkey, striatum; intravenous, 0.1 mg/kg, pretreatment blocking, added: [18F]T-401): 6.41 mL/cm3

N#CC[C@H](C1CCCC1)n1cc(-c2ncnc3[nH]ccc23)cn1
ear thickness difference (Balb/c mice, oxazolone atopic dermatitis; day 23, unit not given; reference: vehicle): -0.154

c1ccc(-c2n[nH]cc2-c2ccnc3ccccc23)nc1
log2 fold change (kinase binding, competitor, MIB/MS competition, item: YPK1; Candida albicans cell lysate; 100 nM; reference: DMSO): 1.33

O=C(O)CNC(=O)Cc1ccccc1
sarcomere length (ventricular cardiomyocytes, C57BL/6 mouse; dose not given, 0.208 s): 1.62 µm

O=C(NCc1ccc(CNS(=O)(=O)c2ccccc2)cc1)c1c(Cl)cc(Cl)cc1Cl
inhibition (ear oedema; mouse; 10 mg/kg, added: xylene): no effect

C[C@H]1O[C@@H](O[C@H]2CC[C@@]3(C)[C@@H](CC[C@]4(C)[C@@H]3C=C[C@]35OC[C@@]6(CCC(C)(C)C[C@H]63)[C@@H](O)C[C@]54C)[C@]2(C)CO)[C@H](O)[C@@H](O[C@@H]2O[C@H](CO)[C@@H](O)[C@H](O)[C@H]2O)[C@H]1O
hepatic triglycerides (Mus musculus, pair-fed control, liver; oral, 15 mg/kg/day): 0.0446 mmol/g protein and 0.0527 mmol/g protein and 0.0841 mmol/g protein and 0.0474 mmol/g protein and 0.07 mmol/g protein and 0.0562 mmol/g protein
